Assay results pooled from the literature.
Protocols differ between the studies behind these lines.
Target: Casein kinase I isoform gamma-3 (CSNK1G3, Homo sapiens, UniProt Q9Y6M4)
Sequence of UniProt Q9Y6M4 (whole entry, looked up): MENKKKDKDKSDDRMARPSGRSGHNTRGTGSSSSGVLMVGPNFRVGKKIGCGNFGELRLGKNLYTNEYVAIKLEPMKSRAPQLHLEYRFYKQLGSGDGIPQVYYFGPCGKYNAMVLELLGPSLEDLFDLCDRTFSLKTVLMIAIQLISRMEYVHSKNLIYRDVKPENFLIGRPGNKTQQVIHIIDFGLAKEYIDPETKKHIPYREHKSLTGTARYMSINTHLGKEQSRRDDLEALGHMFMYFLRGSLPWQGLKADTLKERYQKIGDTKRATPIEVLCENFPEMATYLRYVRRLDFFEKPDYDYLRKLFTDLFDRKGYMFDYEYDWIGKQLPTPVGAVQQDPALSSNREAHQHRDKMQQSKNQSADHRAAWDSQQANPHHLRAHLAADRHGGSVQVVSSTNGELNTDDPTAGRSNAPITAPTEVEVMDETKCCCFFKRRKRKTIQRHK

Structure (SMILES) | assay | setting | scale | endpoint | result
C=CC(=O)N1CCC(COCC(=O)N2CCN(c3nc(-c4cnc(N)nc4C(F)F)nc(N4CCOC[C@@H]4C)n3)CC2)CC1 | KINOMEscan | 1 µM | reference: DMSO control | remaining binding | 100%
COc1cc(N2CCN(C)CC2)ccc1Nc1nc(N)n(C(=S)NCc2c(Cl)cccc2Cl)n1 | enzyme activity | 10 µM | reference: control | remaining activity | 21%
CCN(CC)c1ccc(C2=NNC(=O)CC2C)cc1[N+](=O)[O-] (centres unmarked) | enzyme activity, inhibitor | 10 µM | reference: vehicle | remaining activity | 101%
Cc1cc(Nc2cc(N3CCN(C)CC3)nc(Sc3ccc(NC(=O)C4CC4)cc3)n2)[nH]n1 | kinase activity, KinaseProfiler | 0.03 µM, species human | reference: control | remaining activity | 104%
CNc1ncc2c(/C=C/C(=O)N3CCC(OC)CC3)nn(Cc3cccc(C(F)(F)F)c3)c2n1 | kinase activity, inhibitor | 1 µM | reference: untreated control | remaining activity | 108%
C1=C/COCc2cc(ccc2OCCN2CCCC2)Nc2nccc(n2)-c2cccc(c2)COC/1 | – | concentration not given | – | percent of control | 100%
C[C@@H](c1ccc(-n2cnc3c(N)ncnc32)cc1)N1CCc2nn(C)c(Cc3ccccc3)c2C1=O | KINOMEscan | 0.1 µM | reference: DMSO control | remaining binding | 75%
O=C(NC1CCC1)c1ccc2nc(-c3cccc(NS(=O)(=O)NCCN4CCCCC4)c3)cn2c1 | enzyme activity | 10 µM | – | remaining activity | 100%
CCCOc1ccc(OC)c(F)c1C(=O)c1ccc(C(=O)N[C@@H]2CNC[C@H]2NC(=O)c2ccc3[nH]ncc3c2)cc1 | enzyme activity | 10 µM | – | remaining activity | 31%
COc1cc(F)ccc1-c1ncnc(Nc2cccc(C[S@](C)(=N)=O)c2)n1 | kinase activity | 10 µM, together with: 10 µM ATP | – | remaining activity | 98%
C=CC(=O)N1CCC(C(=O)NCC(=O)N2CCN(c3nc(-c4cnc(N)nc4C(F)F)nc(N4CCOCC4)n3)CC2)CC1 | KINOMEscan | 1 µM | – | remaining binding | 100%

Excerpt of the above:
Structure (SMILES) | assay | setting | scale | endpoint | result
Cc1cc(Nc2cc(N3CCN(C)CC3)nc(Sc3ccc(NC(=O)C4CC4)cc3)n2)[nH]n1 | kinase activity, KinaseProfiler | 0.03 µM, species human | reference: control | remaining activity | 104%
